Measurements pooled from the literature.
Each numbered part is a random draw from the data of one study; scales do not carry over between parts. Substitutions count along the parent as printed.

Sample 1
Target: FOS, bZIP domain (human)
Technique: DHFR protein complementation
Matrix: yeast
Setting: single substitutions, most at no-binding floor
Relative to: wild-type JUN-FOS pair
Direction: higher = stronger binding
Starting sequence: JUN, bZIP domain (human); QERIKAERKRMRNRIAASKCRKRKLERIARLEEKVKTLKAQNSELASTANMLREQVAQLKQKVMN; partner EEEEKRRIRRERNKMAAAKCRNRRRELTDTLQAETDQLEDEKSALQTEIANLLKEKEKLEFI
| Variant | binding fitness [natural log] |
| --- | --- |
| L31N | -0.663 |
| E32C | 0.269 |
| E32Q | -0.0894 |
| R30C | 0.01 |
| N42L | -0.1 |
| A49S | -0.741 |
| K34L | -0.153 |
| R30F | 0.0655 |
| A49Q | -0.813 |
| V56C | -0.52 |
| E32M | -0.0748 |
| E54K | -0.168 |
| V35K | -0.0175 |
| I28K | -0.19 |
| T48V | -0.0685 |
| L31I | -0.458 |
| L52K | -1.04 |
| R53D | -1.08 |
| S43Y | -0.154 |
| S43G | -0.056 |
| R30Q | 0.146 |
| V56E | -1.15 |
| A40S | -0.0878 |
| V56T | -1.16 |
| A49E | -1.1 |

Sample 2
Target: Ras GTPase-activating protein-binding protein 1, C-terminal RGG region (G3BP1, Homo sapiens, UniProt Q13283)
UniProt Q13283, sequence (whole entry, looked up): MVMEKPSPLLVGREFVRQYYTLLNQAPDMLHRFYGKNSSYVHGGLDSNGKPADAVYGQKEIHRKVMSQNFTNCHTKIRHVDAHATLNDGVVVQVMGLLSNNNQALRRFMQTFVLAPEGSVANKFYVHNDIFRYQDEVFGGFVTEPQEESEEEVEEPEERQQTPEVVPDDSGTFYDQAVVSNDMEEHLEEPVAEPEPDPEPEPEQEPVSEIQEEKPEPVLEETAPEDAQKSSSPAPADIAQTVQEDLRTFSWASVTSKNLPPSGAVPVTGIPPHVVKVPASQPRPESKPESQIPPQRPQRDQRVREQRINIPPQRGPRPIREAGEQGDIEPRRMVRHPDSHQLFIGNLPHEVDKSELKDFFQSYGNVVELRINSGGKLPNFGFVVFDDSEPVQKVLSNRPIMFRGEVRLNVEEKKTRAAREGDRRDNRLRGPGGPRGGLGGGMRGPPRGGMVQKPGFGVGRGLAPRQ
Technique: RNA Bind-n-Seq
Molecule type: RNA
Matrix: in vitro
Tested at: 1 µM
Setting: whole 134-nt RNA, ends assumed
Together with: 150 mM KCl
Relative to: input library
Direction: higher = stronger binding
Constant ends, left off below: GGGAGUUCUACAGUCCGACGAUC … UGGAAUUCUCGGGUGUCAAGG
| Oligonucleotide | log2 enrichment |
| --- | --- |
| GUCCUGUGCUACACAUCGUAUGUACCGAAUCGGGAAAAAAGGAAAAAAGGGAAAAAAGGAAAGUAUUAUGUUACGCCGUUCGGAUCUGCA | -1.72 |
| CCUGUGCUACACAUCGUAUGUACCGAAUCGGGGUGGGGUUUUUUUGGGGUUUUUUUGGGGAAAGUAUUAUGUUACGCCGUUCGGAUCUGC | 0.00146 |
| UGUCAGGAUUAUGAAGAAGCUGUGCUCUUGCUGUUAGAAGGAGCUGCCUGGGAAGAAGCUUUGAGGCUGGUAAGAAUCUUGUAAAUCCUC | -1.69 |
| CUGAAGAGUCUGAGGAUGCCCAAUCACAGAGCCAAGCAGAUGAAGAGGAGGAAGAUGAUGAUUUUGGGGUGGAGUACUUGCUUGCCAGGG | -0.812 |
| UCCUGUGCUACACAUCGUAUGUACCGAAUCGGGUUUUUGGGAAAAAAAGGGUUUUUGGGAAAGUAUUAUGUUACGCCGUUCGGAUCUGCA | -0.714 |
| CACAGACAACACGCACCCACACAGACACAGAGGGAAAGGGUUGGGAUGGGGACAGGGUGCACAGCAGGGCGGGGUAGGACCCCAGCCCCU | -0.32 |
| GCAGGAAGUAUAAACAAAUGGAAAUGCUUCGGAUAGUGGCAGGGGUGGGGGUUGCUAAGGAAAGGGUGGGAUGGGAGUGGGUAAAGAGUU | 1.07 |
| UCAAGUCCUGUGCUACACAUCGUAUGUACCGAAUCGGUUUUUUUGGUGGUUUGGAAAGUAUUAUGUUACGCCGUUCGGAUCUGCACUUCC | -1.21 |
| GGCAGUAGCAGCAGCGCCGGGUCCCGUGCGGAGGUGCUCCUCGCAGAGUUGUUUCUCGAGCAGCGGCAGUUCUCACUACAGCGCCAGGAC | -1.24 |
| UCCUGUGCUACACAUCGUAUGUACCGAAUCGGGGAAAAAGGGAAAAAGGGAAAAAGGGGAAAGUAUUAUGUUACGCCGUUCGGAUCUGCA | -0.269 |
| AGUCCUGUGCUACACAUCGUAUGUACCGAAUCGGUUUUUUUGGAAAGGAAAAAAAGGAAAGUAUUAUGUUACGCCGUUCGGAUCUGCACU | -2 |
| CACAGACAACACGCACCCAGACAGACACAGAGGGAAGGGGUUGGGAUGGGGACAGGGUGCACAGCAGGGCGGGGUAGGACCCCAGCCCCU | -0.157 |
| UCAAGUCCUGUGCUACACAUCGUAUGUACCGAAUCGGCCCGGGGCCCGGGCCCGGAAAGUAUUAUGUUACGCCGUUCGGAUCUGCACUUC | -1.85 |
| ACCAUGCAGGUAAACAUCUUUGGGAAGUGGGGCAAGGGGGGGAUAGGGAGGGGGGUAACACUUUGGGAACAGGUGGUCCCAGGUCGUUUC | -1.1 |

Sample 3
Target: ABI1, truncated, D143A, DHFR fusion (Arabidopsis thaliana)
Technique: DHFR PCA, deep sequencing
Matrix: yeast
Setting: methotrexate growth selection, single substitutions
Together with: (+)-ABA 0.032 µM
Relative to: wild-type fitted maximum
Direction: higher = stronger binding
Starting sequence: PYL1, truncated, DHFR fusion (Arabidopsis thaliana); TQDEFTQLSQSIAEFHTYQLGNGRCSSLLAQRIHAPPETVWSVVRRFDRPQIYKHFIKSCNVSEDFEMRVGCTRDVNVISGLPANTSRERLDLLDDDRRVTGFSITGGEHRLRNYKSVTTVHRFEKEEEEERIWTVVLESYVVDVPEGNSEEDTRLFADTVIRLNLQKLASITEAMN
| Variant | relative binding score [%] |
| --- | --- |
| Y53G | -0.908 |
| E139T | 14 |
| F47E | -7.65 |
| Q31K | 8.63 |
| R69S | 12.3 |
| V100D | -0.127 |
| C72K | -1.89 |
| T39Y | 6.68 |
| L138K | 1.05 |
| W41K | -2.19 |
| L28S | 1.76 |
| L112K | 4.71 |
| E128L | 18.2 |
| L29A | 4.77 |
| R123P | 21.3 |
| N85Y | 64.6 |

Sample 4
Target: RING finger protein unkempt homolog, zinc fingers 1-6, GST-SBP tag (UNK, Homo sapiens, UniProt Q9C0B0, residues 30-357)
UniProt Q9C0B0, sequence (30-357, looked up): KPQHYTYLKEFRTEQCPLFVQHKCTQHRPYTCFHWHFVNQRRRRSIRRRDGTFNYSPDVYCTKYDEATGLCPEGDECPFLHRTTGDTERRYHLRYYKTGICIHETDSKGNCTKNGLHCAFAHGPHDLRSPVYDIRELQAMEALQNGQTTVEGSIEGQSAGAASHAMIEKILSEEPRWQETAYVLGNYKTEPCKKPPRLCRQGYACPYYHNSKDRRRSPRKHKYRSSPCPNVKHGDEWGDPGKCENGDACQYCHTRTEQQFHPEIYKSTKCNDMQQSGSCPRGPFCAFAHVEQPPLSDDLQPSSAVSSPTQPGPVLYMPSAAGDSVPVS
Technique: RNA Bind-n-Seq
Molecule type: RNA
Matrix: in vitro
Tested at: not given
Setting: RNA with constant flanks, human and mouse sites, ends assumed
Relative to: input RNA pool
Direction: higher = stronger binding
Constant ends, left off below: GGGAGUUCUACAGUCCGACGAUC … CAACAGAGGAUUGAGCAUCA
| Oligonucleotide | bound/input enrichment |
| --- | --- |
| AACAAAGAUUAUCACAAGGAUGUUCGUAAUAACUUUUUGCCACCAAUUAUUGCACGUUUCAUUAGAGUGAACCCUGUCCAGUGGCAACAGAAAAUUGCCAUGAAAGUGGAACUGCUCGGA | 0.183 ratio |
| AAUCUCUGGGAACACUAUUAUAAAGAUGGACAAGCCAUUAUUUUUGUCAUUGAUAGUAGUGAUAAGUUAAGAAUGGUUGUGGCCAAAGAAGAGCUUGAUACCCUUCUGAAUCACCCAGAU | 0.156 ratio |
| UCUUCCUUUGCCUUUCCUCUUGAUAGUGUUUUCUGAUGAGCCAUCAUUGCCACUGCAUUUGAUUUAGUGUGUAAUGUGGUCUGUUAUCCAGCUGUUUUUCACAGUCUGUAGUGACUCUUA | 0.389 ratio |
| GCAGGCUACUUUUUGGAACAUCUGGCUUUCAAGGGAACAAAGAAUCGGCCUGGCAAUGCCUUAGAGAAGGAGGUAGAGAGUAUUGGGGCUCAUCUUAAUGCCUACAGCACUCGAGAGCAC | 0.303 ratio |
| UGCAGCUCCCCACUCCAGCUCAAUCUGCUGCAGCUUGAGGAGUCCCCCCGCACGGAGGGGGGCGCUGCUGCAGGAGGCCCAGGAAGCAGUGCUGGGCCCCUGCCUCCCAGUGAGGAGACU | 0.149 ratio |
| CGUUAUUUUCAUGUGGUCAUUGCUGGCCCCCAGGAUUCCCCCUUUGAGGGAGGGACUUUUAAACUUGAACUAUUCCUUCCAGAAGAAUACCCAAUGGCAGCACCUAAAAUAAGUGGUCCC | 0.264 ratio |
| UAGCGCAACUUCCGGUAUUGUUGCAAGAUGGCCGCGCCCAGUGAUGGAUUCAAGCCUCGUGAACGAAGCGGUGGGGAGCAGGCACAGGACUGGGAUGCUCUGCCACCCAAGCGGCCCCGA | 0.171 ratio |
| AGGAGAAAAAUCAUCUUAUCAGACGAAGGCAAAAUGUAUGGUAGAAAUGAAUUGAUAGCCAGAUACAUCAAACUCAGGACGGGAAAGACAAGGACCAGGAAGCAGGUGUCUAGUCACAUU | 0.589 ratio |
| CUUUUUUACACCAUCUUCUGUUAUUCAUUGCUUUUGAAGAGAAGCAUAGAAGAGACUUUUUAUUUAUUCUAGAAUUGCAGAAAUGACUACACUGUGCUAUACCAGAGAAUUCCAGUAGAA | 0.603 ratio |
| GUUUACUCUCAGAGCACAGCUCUUACUCAUAAGCAGUCUUAUUAUUCCAUUGCCAAAUGUGUAGCUGCCCUUACUCGAGCAUGCCCUAAAGAGGGACCAGCUGUAGUAGGUCAGUUUAUU | 0.143 ratio |
| UAUGAUUUGGUUGCAGGAAGCAAUUGCCUAAAAAGCAGUUAUGUCCUCAGCAAAUCAAGAGCCCUUGAACAUUUCCCAAUGCUCCAGAAGGACAAACUGGUAGGAGCAAUUGUCUACUAU | 0.102 ratio |

Sample 5
Target: Histone acetyltransferase KAT6A, both winged helices, GST fusion (KAT6A, Homo sapiens, UniProt Q92794, residues 1-181)
Technique: protein binding microarray
Molecule type: double-stranded DNA, one strand shown
Matrix: in vitro
Tested at: not given
Setting: 8-mer, flanks averaged, mean of 2 arrays, mostly near background
Relative to: not given
Direction: higher = stronger binding
Residues (chain): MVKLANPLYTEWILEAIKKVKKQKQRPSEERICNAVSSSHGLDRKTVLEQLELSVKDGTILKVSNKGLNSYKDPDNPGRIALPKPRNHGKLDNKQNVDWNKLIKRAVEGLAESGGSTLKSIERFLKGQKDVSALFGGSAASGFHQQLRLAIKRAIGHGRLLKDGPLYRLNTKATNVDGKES
| Oligonucleotide | E-score |
| --- | --- |
| GCGATATA | 0.0675 |
| AGTATGGA | -0.138 |
| CTAACGGA | 0.199 |
| AGGGAACT | -0.191 |
| CGTGCGTA | 0.248 |
| TATGCCCA | -0.154 |
| GTTCCCTA | -0.0846 |
| AGTAGAGC | -0.189 |
| CGATGTCA | 0.0424 |
| GTATGGAA | -0.12 |
| CGCCACAC | 0.0767 |
| CAAAGTAA | -0.0582 |
| AGCGAAGG | 0.0196 |
| CAGATTGC | -0.0403 |
| GTCAACAA | -0.0081 |
| CTAGCGAC | -0.0389 |

Sample 6
Target: CCND3, cyclin fold, Cln2 fusion (human)
Technique: yeast growth competition, sequencing
Matrix: yeast
Setting: weak parent motif
Relative to: not given
Direction: higher = stronger binding
Starting sequence: CDC25A docking peptide (human); PPHRRRLLFACSP
| Variant | normalised enrichment score |
| --- | --- |
| R4H | 0.0781 |
| A10C | 0.079 |
| P2H | 0.211 |
| H3N | 0.11 |
| P13K | 0.0681 |
| L8W | 0.144 |
| C11K | 0.0274 |
| H3K | 0.102 |
| C11Q | 0.126 |
| H3W | 0.145 |
| A10I | 0.0927 |
| P13I | 0.0913 |
| P13T | 0.18 |
| R6E | 0.0981 |
| P1N | 0.143 |
| L8K | 0.201 |
| R4K | 0.19 |
| C11N | 0.0175 |
| P1R | 0.198 |
| L7W | 0.139 |
| R5P | 0.128 |
| F9V | 0.117 |
| R5K F9L | 0.0198 |
| P1A | 0.072 |
| R6D | 0.104 |

Further values, each from its own experiment
| Substance | target | test | test system | conditions | how to read | quantity | value |
| --- | --- | --- | --- | --- | --- | --- | --- |
| PhoQ, residues 284 288 289 292 302 303 SACGEM | PhoP, residues 12 14 15 18 19 NQFFI (Escherichia coli, UniProt P23836) | Sort-seq, measured: YFP reporter | E. coli | PhoQ-PhoP variant library, together with: 10 µM Mg2+ | relative to: high Mg2+ state, higher = stronger signaling | fold induction | 1.69 |
